Published values of several laboratories.
Every numbered part comes from another study and shows a few of its results, in no order. Numbers after ± are the reported error. Converted amounts (≈) assume the structure as drawn.
Sequence of UniProt P51532 (whole entry, unmodified, looked up): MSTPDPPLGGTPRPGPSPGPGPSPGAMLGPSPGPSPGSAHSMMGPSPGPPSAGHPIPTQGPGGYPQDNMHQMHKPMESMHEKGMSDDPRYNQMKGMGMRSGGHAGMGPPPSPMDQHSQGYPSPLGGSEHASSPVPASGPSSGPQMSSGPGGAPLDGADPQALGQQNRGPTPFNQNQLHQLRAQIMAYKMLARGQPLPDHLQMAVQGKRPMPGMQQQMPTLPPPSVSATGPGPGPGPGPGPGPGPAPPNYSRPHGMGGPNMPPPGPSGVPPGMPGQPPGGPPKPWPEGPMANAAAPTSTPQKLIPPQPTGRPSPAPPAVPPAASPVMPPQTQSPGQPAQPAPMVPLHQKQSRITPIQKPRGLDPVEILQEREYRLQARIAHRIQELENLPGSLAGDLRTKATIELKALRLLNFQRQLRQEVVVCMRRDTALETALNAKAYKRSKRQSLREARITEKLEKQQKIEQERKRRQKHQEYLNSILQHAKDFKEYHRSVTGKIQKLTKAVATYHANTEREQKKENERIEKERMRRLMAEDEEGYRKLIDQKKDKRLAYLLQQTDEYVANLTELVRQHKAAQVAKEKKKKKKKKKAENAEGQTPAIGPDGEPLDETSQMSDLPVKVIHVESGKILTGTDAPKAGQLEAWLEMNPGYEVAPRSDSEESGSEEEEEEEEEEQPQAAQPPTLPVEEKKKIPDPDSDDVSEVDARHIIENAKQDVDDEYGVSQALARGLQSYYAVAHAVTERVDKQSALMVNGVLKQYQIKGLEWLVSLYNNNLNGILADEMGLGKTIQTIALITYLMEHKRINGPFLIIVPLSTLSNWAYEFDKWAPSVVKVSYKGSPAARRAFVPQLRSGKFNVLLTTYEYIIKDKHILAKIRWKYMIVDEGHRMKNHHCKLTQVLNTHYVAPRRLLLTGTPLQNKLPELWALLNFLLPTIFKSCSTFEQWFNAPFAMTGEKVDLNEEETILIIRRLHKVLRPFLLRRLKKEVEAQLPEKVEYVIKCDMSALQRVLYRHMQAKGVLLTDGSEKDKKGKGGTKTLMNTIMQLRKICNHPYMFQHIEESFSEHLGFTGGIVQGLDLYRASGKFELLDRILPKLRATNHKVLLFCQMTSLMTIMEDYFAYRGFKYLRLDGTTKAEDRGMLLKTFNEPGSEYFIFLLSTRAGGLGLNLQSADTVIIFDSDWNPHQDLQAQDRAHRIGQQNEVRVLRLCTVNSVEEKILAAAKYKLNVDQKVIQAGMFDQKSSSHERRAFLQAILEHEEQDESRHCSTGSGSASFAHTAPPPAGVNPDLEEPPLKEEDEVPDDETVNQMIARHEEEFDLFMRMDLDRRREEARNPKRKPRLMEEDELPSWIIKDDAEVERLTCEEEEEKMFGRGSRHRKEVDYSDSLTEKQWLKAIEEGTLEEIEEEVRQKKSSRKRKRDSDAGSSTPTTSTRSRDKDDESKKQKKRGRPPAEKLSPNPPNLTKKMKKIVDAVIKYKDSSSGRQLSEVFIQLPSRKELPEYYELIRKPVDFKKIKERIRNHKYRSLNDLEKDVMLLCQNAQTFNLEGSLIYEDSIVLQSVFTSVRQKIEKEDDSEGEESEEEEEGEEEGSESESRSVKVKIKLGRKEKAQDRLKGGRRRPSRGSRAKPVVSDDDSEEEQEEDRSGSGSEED
Sequence of UniProt P34913 (whole entry, looked up): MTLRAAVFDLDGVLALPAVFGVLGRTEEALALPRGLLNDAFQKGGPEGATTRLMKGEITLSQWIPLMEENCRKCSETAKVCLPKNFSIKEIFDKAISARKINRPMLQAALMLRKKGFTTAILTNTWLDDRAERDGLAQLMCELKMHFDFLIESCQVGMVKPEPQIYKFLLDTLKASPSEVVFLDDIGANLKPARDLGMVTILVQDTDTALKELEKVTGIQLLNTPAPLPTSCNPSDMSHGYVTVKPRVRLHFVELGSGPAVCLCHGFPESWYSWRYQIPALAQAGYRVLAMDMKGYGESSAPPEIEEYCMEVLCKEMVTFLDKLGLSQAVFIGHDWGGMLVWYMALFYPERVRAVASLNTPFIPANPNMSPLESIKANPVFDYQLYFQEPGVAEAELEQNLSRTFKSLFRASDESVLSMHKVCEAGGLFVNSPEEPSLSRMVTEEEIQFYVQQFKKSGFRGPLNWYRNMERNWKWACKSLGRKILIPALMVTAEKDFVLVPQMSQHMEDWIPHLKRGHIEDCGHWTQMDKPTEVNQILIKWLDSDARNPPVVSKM

Series 1
Structure (SMILES): Cc1cc(OCc2nnc(SC3CCCC3)n2-c2cccnc2)ccc1-c1ccc(S(C)(=O)=O)cc1
It gave 1320 nM for GI50 (NCI-H460).
RPMI-8226 — GI50: 134 nM.
HCT-116 — GI50: 622 nM.
It gave 832 nM for GI50 (OVCAR-8).
The GI50 was 1570 nM (NCI-H522).
The GI50 was 426 nM (LOX IMVI).
HCC 2998 — GI50: 1030 nM.
For NCI-H226: GI50 read 216 nM.

Other studies, line by line
The IC50 of `Cc1ccc(S(=O)(=O)Nc2c(N3CCC(NC(=O)Nc4cc(F)cc(F)c4)CC3)c(=O)c2=O)cc1` is reported as 294 ± 30.1 nM (EPHX2 (Homo sapiens, UniProt P34913)).
With `CC[C@@H]1C(=O)N(C)c2cnc(Nc3ccc(C(=O)NC4CCN(C)CC4)cc3OC)nc2N1C1CCCC1` the ΔTm was -0.15 ± 0.88 °C (BPTF (Homo sapiens, UniProt Q12830); thermal stabilisation, thermal shift; 10 µM).
For `CCCOc1cc(C#N)c(Oc2ccccc2C)cc1-n1c(=O)cc(C(F)(F)F)[nH]c1=O`, the IC50 was 20000 nM (MDA-MB-231).
`Cc1cncc(C)n1` has an EC50 of 545000 ± 35800 nM (uncharacterized protein (Bos taurus, UniProt E1BM68); agonist).
`C#Cc1cccc(Nc2ncnc3cc(OCCOC)c(OCCOC)cc23)c1` gave a viability of 23.7% (HepG2; MTT; 100 µg/mL, maintenance medium, 2% serum).
For `N#Cc1ccc(-c2csc(CNC(=O)C34CC(CN(C(=O)COCCF)C3)C4)n2)cc1`, the logD was 1.3 (shake flask; octanol/buffer; pH 7.4).
For `Cc1cnc(Nc2ccc(OCCN3CCCC3)cc2)nc1Nc1cccc(S(=O)(=O)NC(C)(C)C)c1`, the ΔTm was 0.01 ± 0.08 °C (SMARCA4 (Homo sapiens, UniProt P51532); 10 µM).
For `O=C(Nc1ccc(-c2cnc3ccccc3c2)cc1)C1CCN(Cc2ccccc2[N+](=O)[O-])CC1`, the solubility was 31 to 63 µM (≈ 14.5 to 29.4 µg/mL) (sodium phosphate buffer, 1% DMSO; pH 7.4).

Some of these lines once more (other studies, line by line):
For `N#Cc1ccc(-c2csc(CNC(=O)C34CC(CN(C(=O)COCCF)C3)C4)n2)cc1`, the logD was 1.3 (shake flask; octanol/buffer; pH 7.4).
For `Cc1cnc(Nc2ccc(OCCN3CCCC3)cc2)nc1Nc1cccc(S(=O)(=O)NC(C)(C)C)c1`, the ΔTm was 0.01 ± 0.08 °C (SMARCA4 (Homo sapiens, UniProt P51532); 10 µM).
For `O=C(Nc1ccc(-c2cnc3ccccc3c2)cc1)C1CCN(Cc2ccccc2[N+](=O)[O-])CC1`, the solubility was 31 to 63 µM (≈ 14.5 to 29.4 µg/mL) (sodium phosphate buffer, 1% DMSO; pH 7.4).
